# Results of several laboratories.
# U2AF2: U2AF2 148-342 (Homo sapiens, UniProt P26368)
# Sequence of UniProt P26368 (whole entry, looked up): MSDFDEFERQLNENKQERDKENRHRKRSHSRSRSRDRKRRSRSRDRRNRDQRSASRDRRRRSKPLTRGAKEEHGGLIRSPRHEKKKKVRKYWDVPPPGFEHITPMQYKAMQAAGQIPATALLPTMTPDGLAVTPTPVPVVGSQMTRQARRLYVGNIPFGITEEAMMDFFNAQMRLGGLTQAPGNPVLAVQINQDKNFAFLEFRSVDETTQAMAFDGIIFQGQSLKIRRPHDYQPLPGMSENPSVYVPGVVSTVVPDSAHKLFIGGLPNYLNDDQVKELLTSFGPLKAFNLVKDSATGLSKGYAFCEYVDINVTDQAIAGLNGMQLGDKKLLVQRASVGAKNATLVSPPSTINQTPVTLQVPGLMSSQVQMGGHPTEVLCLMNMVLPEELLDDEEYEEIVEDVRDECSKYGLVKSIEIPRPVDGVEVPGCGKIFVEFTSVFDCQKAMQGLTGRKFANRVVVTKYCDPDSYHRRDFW
# B1: dlg1 1-97 I34G/V37G/I38G (Drosophila melanogaster, UniProt P31007); sequence looked up; chain MPVKKQEAHRALELLEDYHARLSEPQDRALRIAGERGGRIFKSRLFQALLDIQEFYELTLLDDSKSIQQKTAETLQIATKWEKDGQAVKIADFIKSS
# B2: cas3 1-1076 (Pseudomonas aeruginosa, UniProt Q02ML8); chain MNILLVSQCEKRALSETRRILDQFAERRGERTWQTPITQAGLDTLRRLLKKSARRNTAVACHWIRGRDHSELLWIVGDASRFNAQGAVPTNRTCRDILRKEDENDWHSAEDIRLLTVMAALFHDIGKASQAFQAKLRNRGKPMADAYRHEWVSLRLFEAFVGPGSSDEDWLRRLADKRETGDAWLSQLARDDRQSAPPGPFQKSRLPPLAQAVGWLIVSHHRLPNGDHRGSASLARLPAPIQSQWCGARDADAKEKAACWQFPHGLPFASAHWRARTALCAQSMLERPGLLARGPALLHDSYVMHVSRLILMLADHHYSSLPADSRLGDPNFPLHANTDRDSGKLKQRLDEHLLGVALHSRKLAGTLPRLERQLPRLARHKGFTRRVEQPRFRWQDKAYDCAMACREQAMEHGFFGLNLASTGCGKTLANGRILYALADPQRGARFSIALGLRSLTLQTGQAYRERLGLGDDDLAILVGGSAARELFEKQQERLERSGSESAQELLAENSHVHFAGTLEDGPLREWLGRNSAGNRLLQAPILACTIDHLMPASESLRGGHQIAPLLRLMTSDLVLDEVDDFDIDDLPALSRLVHWAGLFGSRVLLSSATLPPALVQGLFEAYRSGREIFQRHRGAPGRATEIRCAWFDEFSSQSSAHGAVTSFSEAHATFVAQRLAKLEQLPPRRQAQLCTVHAAGEARPALCRELAGQMNTWMADLHRCHHTEHQGRRISFGLLRLANIEPLIELAQAILAQGAPEGLHVHLCVYHSRHPLLVRSAIERQLDELLKRSDDDAAALFARPTLAKALQASTERDHLFVVLASPVAEVGRDHDYDWAIVEPSSMRSIIQLAGRIRRHRSGFSGEANLYLLSRNIRSLEGQNPAFQRPGFETPDFPLDSHDLHDLLDPALLARIDASPRIVEPFPLFPRSRLVDLEHRRLRALMLADDPPSSLLGVPLWWQTPASLSGALQTSQPFRAGAKERCYALLPDEDDEERLHFSRYEEGTWSNQDNLLRNLDLTYGPRIQTWGTVNYREELVAMAGREDLDLRQCAMRYGEVRLRENTQGWSYHPYLGFKKYN
# B3: clpC E280A/E618A (Bacillus subtilis, UniProt P37571); chain MMFGRFTERAQKVLALAQEEALRLGHNNIGTEHILLGLVREGEGIAAKALQALGLGSEKIQKEVESLIGRGQEMSQTIHYTPRAKKVIELSMDEARKLGHSYVGTEHILLGLIREGEGVAARVLNNLGVSLNKARQQVLQLLGSNETGSSAAGTNSNANTPTLDSLARDLTAIAKEDSLDPVIGRSKEIQRVIEVLSRRTKNNPVLIGEPGVGKTAIAEGLAQQIINNEVPEILRDKRVMTLDMGTVVAGTKYRGEFEDRLKKVMDEIRQAGNIILFIDALHTLIGAGGAEGAIDASNILKPSLARGELQCIGATTLDEYRKYIEKDAALERRFQPIQVDQPSVDESIQILQGLRDRYEAHHRVSITDDAIEAAVKLSDRYISDRFLPDKAIDLIDEAGSKVRLRSFTTPPNLKELEQKLDEVRKEKDAAVQSQEFEKAASLRDTEQRLREQVEDTKKSWKEKQGQENSEVTVDDIAMVVSSWTGVPVSKIAQTETDKLLNMENILHSRVIGQDEAVVAVAKAVRRARAGLKDPKRPIGSFIFLGPTGVGKTELARALAESIFGDEESMIRIDMSEYMEKHSTSRLVGSPPGYVGYDEGGQLTEKVRRKPYSVVLLDAIEKAHPDVFNILLQVLEDGRLTDSKGRTVDFRNTILIMTSNVGASELKRNKYVGFNVQDETQNHKDMKDKVMGELKRAFRPEFINRIDEIIVFHSLEKKHLTEIVSLMSDQLTKRLKEQDLSIELTDAAKAKVAEEGVDLEYGARPLRRAIQKHVEDRLSEELLRGNIHKGQHIVLDVEDGEFVVKTTAKTN
# B4: FCY1 (yeast, UniProt Q12178); sequence looked up; chain MVTGGMASKWDQKGMDIAYEEAALGYKEGGVPIGGCLINNKDGSVLGRGHNMRFQKGSATLHGEISTLENCGRLEGKVYKDTTLYTTLSPCDMCTGAIIMYGIPRCVVGENVNFKSKGEKYLQTRGHEVVVVDDERCKKIMKQFIDERPQDWFEDIGE
# B5: RAD52 1-418 K102A/K133A/K169A/R173A (Homo sapiens, UniProt P43351); chain MSGTEEAILGGRDSHPAAGGGSVLCFGQCQYTAEEYQAIQKALRQRLGPEYISSRMAGGGQKVCYIEGHRVINLANEMFGYNGWAHSITQQNVDFVDLNNGAFYVGVCAFVRVQLKDGSYHEDVGYGVSEGLASKALSLEKARKEAVTDGLKRALRSFGNALGNCILDADYLASLNKLPRQLPLEVDLTKAKRQDLEPSVEEARYNSCRPNMALGHPQLQQVTSPSRPSHAVIPADQDCSSRSLSSSAVESEATHQRKLRQKQLQQQFRERMEKQQVRVSTPSAEKSEAAPPAPPVTHSTPVTVSEPLLEKDFLAGVTQELIKTLEDNSEKWAVTPDAGDGVVKPSSRADPAQTSDTLALNNQMVTQNRTPHSVCHQKPQAKSGSWDLQTYSADQRTTGNWESHRKSQDMKKRKYDPS
# B6: Gm4951 C235A (Mus musculus, UniProt Q3UED7); sequence looked up; chain MGQLFSSRRSEDQDLSSSFIEYLKECEKGINIIPHEIITSIEINMKKGNIQEVNSTVRDMLREIDNTPLNVALTGETGSGKSSFINTLRGIGHEEGGAAHTGVTDKTKERHPYEHPKMPNVVFWDLPGTGSEDFQPKTYLEKMKFYEYDFFIIISATRFKKNDIDLAKAIGIMKKEFYFVRTQVDSDLRNEEDFKPQTFDREKVLQDIRLNCVNTFRENGIAEPPIFLISNKNVAHYDFPVLMDKLISDLPVFKRQNFMFSLPNITDSVIEKKRNFLRWKTWLEGFADGLLSFFLESDLETLEKSMKFYRTVFGVDDASLQRLARAWEIDQVDQVRAMIKSPAVFTPTDEETIQERLSRYNQEFCLANGYLLPKNHCREILYLKLYFLDMVTEDAKTLLKEICLRN
# B7: CRYAA G98R (Homo sapiens, UniProt P02489); sequence looked up; chain MDVTIQHPWFKRTLGPFYPSRLFDQFFGEGLFEYDLLPFLSSTISPYYRQSLFRTVLDSGISEVRSDRDKFVIFLDVKHFSPEDLTVKVQDDFVEIHRKHNERQDDHGYISREFHRRYRLPSNVDQSALSCSLSADGMLTFCGPKIQTGLDATHAERAIPVSREEKPTSAPSS
# B8: NINJ2 Q103F (Homo sapiens, UniProt Q9NZG7); sequence looked up; chain MESARENIDLQPGSSDPRSQPINLNHYATKKSVAESMLDVALFMSNAMRLKAVLEQGPSSHYYTTLVTLISLSLLLQVVIGVLLVVIARLNLNEVEKQWRLNFLNNAATILVFFTVVINVFITAFGAHKTGFLAARASRNPL
# B9: SPOP D140N (Homo sapiens, UniProt O43791); sequence looked up; chain MSRVPSPPPPAEMSSGPVAESWCYTQIKVVKFSYMWTINNFSFCREEMGEVIKSSTFSSGANDKLKWCLRVNPKGLDEESKDYLSLYLLLVSCPKSEVRAKFKFSILNAKGEETKAMESQRAYRFVQGKDWGFKKFIRRNFLLDEANGLLPDDKLTLFCEVSVVQDSVNISGQNTMNMVKVPECRLADELGGLWENSRFTDCCLCVAGQEFQAHKAILAARSPVFSAMFEHEMEESKKNRVEINDVEPEVFKEMMCFIYTGKAPNLDKMADDLLAAADKYALERLKVMCEDALCSNLSVENAAEILILADLHSADQLKTQAVDFINYHASDVLETSGWKSMVVSHPHLVAEAYRSLASAQCPFLGPPRKRLKQS
# B10: cooS 1-639 (Rhodospirillum rubrum, UniProt P31896); chain MTHHDCAHCSSDACATEMLNLAEANSIETAWHRYEKQQPQCGFGSAGLCCRICLKGPCRIDPFGEGPKYGVCGADRDTIVARHLVRMIAAGTAAHSEHGRHIALAMQHISQGELHDYSIRDEAKLYAIAKTLGVATEGRGLLAIVGDLAAITLGDFQNQDYDKPCAWLAASLTPRRVKRLGDLGLLPHNIDASVAQTMSRTHVGCDADPTNLILGGLRVAMADLDGSMLATELSDALFGTPQPVVSAANLGVMKRGAVNIAVNGHNPMLSDIICDVAADLRDEAIAAGAAEGINIIGICCTGHEVMMRHGVPLATNYLSQELPILTGALEAMVVDVQCIMPSLPRIAECFHTQIITTDKHNKISGATHVPFDEHKAVETAKTIIRMAIAAFGRRDPNRVAIPAFKQKSIVGFSAEAVVAALAKVNADDPLKPLVDNVVNGNIQGIVLFVGCNTTKVQQDSAYVDLAKSLAKRNVLVLATGCAAGAFAKAGLMTSEATTQYAGEGLKGVLSAIGTAAGLGGPLPLVMHMGSCVDNSRAVALATALANKLGVDLSDLPLVASAPECMSEKALAIGSWAVTIGLPTHVGSVPPVIGSQIVTKLVTETAKDLVGGYFIVDTDPKSAGDKLYAAIQERRAGLGL
Molecule,tested on,assay,test system,conditions,endpoint,result
B1 (dlg1 1-97 I34G/V37G/I38G),itself,SEC,,,binding,binds
B2 (cas3 1-1076),itself,cryo-EM,,,binding,binds
B3 (clpC E280A/E618A),itself,SEC,,together with: ATP,binding,binds
B4 (FCY1),itself,crystal structure,,,binding,binds
B5,itself,mass photometry,,,binding,binds
B6 (Gm4951 C235A),itself,mass photometry,,,binding,binds
B7 (CRYAA G98R),itself,SEC-MALS,,"1 hour h, pH 7.4, 37 °C",binding,binds
B8 (NINJ2 Q103F),itself,negative-stain EM,,,binding,binds
GCUUUCUUU (ssRNA),U2AF2,sequencing of bound RNA,RNA,motif only,Kd,1.18 µM
B9 (SPOP D140N),itself,negative-stain TEM,,,binding,binds
CUCUUCCUU (ssRNA),U2AF2,sequencing of bound RNA,RNA,motif only,Kd,2.97 µM
B10 (cooS 1-639),itself,SEC-MALS,,,binding,binds
